Values quoted from earlier work as cited in several papers.
Protocols differ between the studies behind these lines.

The Kd of C[C@@H](NC(=O)[C@@H](N)Cc1ccc(O)cc1)C(=O)NCC(=O)N(C)[C@@H](Cc1ccccc1)C(=O)NCCO is reported as 0.815 µM (mu opioid receptor, solubilized; binding).
For Oc1ccc(-c2nc(-c3ccc(OC4CCCC4)cc3)no2)cc1, antibacterial activity read “inactive” (Gram-negative bacteria; concentration not given).
With Cc1ccc(-c2nc3ccc(C)cn3c2CC(=O)N(C)C)cc1 the CLint, scaled was 0.75 L/h/kg (liver microsomes 0.5 mg/mL; 1 µM).
For `FPQPQLPY`, the IC50 was 0.0204 µM (HLA class I histocompatibility antigen, B alpha chain, allele B*51:01 (Homo sapiens, UniProt P01889); peptide-MHC binding; peptide).
c1nc[nH]n1 has a pKa of 10.3.
C=CC(=O)N[C@H]1C=C(C)c2c(-c3cnc4ccccc4c3)c3c(N)ncnc3n2C1 — result for “patients with adverse events”: 23% (phase 1/2 trial; human, NSCLC patients; dose not given).
CO[C@@H]1[C@H](O)[C@@H](COP(=O)(O)OP(=O)(O)OP(=O)(O)O)O[C@H]1n1cnc2c(N)ncnc21 gave an IC50 of 50 µM (HCV NS5B polymerase; inhibitor).
COc1ccc([C@H]2c3[nH]c4ccc(Cl)cc4c3CCN2C(=O)Oc2ccc(Cl)cc2)cc1 gave an IC50 of 1.27 µM (BCRP; substrate transport, inhibitor).
